{"data": "Measured values from different studies", "note": "Every numbered part comes from another study and shows a few of its results, in no order.", "sequence of UniProt P35348 (whole entry, looked up)": "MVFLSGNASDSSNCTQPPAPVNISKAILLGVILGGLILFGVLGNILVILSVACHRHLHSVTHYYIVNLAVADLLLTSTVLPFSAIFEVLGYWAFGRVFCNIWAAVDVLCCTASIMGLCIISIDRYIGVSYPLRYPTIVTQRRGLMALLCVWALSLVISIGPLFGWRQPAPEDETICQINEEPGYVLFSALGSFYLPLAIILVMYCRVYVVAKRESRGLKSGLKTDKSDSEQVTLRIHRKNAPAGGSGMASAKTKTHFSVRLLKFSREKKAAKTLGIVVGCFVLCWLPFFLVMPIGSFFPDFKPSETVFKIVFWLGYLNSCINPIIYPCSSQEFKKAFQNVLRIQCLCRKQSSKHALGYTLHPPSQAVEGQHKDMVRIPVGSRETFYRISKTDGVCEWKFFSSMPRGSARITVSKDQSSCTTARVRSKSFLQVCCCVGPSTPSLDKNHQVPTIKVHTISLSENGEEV", "sequence of UniProt P08588 (whole entry, looked up)": "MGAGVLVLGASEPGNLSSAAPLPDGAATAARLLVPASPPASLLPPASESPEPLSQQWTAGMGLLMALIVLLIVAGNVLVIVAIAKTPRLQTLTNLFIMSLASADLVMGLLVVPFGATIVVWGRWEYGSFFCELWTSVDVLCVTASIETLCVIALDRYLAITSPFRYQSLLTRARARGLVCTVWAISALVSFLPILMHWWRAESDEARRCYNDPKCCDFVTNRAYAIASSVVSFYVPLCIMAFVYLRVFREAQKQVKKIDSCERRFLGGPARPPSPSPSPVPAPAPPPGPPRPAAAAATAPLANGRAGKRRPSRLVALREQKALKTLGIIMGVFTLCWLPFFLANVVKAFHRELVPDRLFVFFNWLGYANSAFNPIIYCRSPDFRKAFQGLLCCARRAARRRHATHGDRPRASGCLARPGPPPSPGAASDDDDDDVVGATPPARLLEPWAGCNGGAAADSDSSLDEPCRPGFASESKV", "sequence of UniProt P28222 (whole entry, looked up)": "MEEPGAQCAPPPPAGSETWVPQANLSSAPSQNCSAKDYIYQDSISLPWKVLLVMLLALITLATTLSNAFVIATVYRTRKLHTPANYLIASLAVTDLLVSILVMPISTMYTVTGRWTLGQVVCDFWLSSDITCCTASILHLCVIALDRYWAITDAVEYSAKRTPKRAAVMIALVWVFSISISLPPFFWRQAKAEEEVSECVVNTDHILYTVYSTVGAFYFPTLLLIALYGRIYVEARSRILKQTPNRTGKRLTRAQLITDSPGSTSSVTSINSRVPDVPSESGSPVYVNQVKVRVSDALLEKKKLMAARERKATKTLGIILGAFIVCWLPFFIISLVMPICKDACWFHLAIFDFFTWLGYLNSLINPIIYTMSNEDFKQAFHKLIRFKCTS"}
{"data": "Study 1", "host": "mouse", "medium": "microsomes or S9", "tested at": "2 µM", "time": "0.5 h"}
{"Compound": "CC(=O)CC(CC(C)C)n1nnc(-c2ccccc2)n1 (centres unmarked)", "remaining compound": "0.0501%"}
{"Compound": "CCn1cc(N(CC(C)C)C(=O)c2nncc3ccccc23)cn1", "remaining compound": "65.8%"}
{"Compound": "CN(C)CCCNCc1cccc(Oc2nnnn2-c2ccccc2)c1", "remaining compound": "30%"}
{"data": "Study 2", "target": "Ephrin type-A receptor 4 (EPHA4, Homo sapiens, UniProt P54764)", "observed": "enzyme activity", "mode": "inhibitor", "tested at": "0.5 µM", "baseline": "control", "sequence of UniProt P54764 (whole entry, looked up)": "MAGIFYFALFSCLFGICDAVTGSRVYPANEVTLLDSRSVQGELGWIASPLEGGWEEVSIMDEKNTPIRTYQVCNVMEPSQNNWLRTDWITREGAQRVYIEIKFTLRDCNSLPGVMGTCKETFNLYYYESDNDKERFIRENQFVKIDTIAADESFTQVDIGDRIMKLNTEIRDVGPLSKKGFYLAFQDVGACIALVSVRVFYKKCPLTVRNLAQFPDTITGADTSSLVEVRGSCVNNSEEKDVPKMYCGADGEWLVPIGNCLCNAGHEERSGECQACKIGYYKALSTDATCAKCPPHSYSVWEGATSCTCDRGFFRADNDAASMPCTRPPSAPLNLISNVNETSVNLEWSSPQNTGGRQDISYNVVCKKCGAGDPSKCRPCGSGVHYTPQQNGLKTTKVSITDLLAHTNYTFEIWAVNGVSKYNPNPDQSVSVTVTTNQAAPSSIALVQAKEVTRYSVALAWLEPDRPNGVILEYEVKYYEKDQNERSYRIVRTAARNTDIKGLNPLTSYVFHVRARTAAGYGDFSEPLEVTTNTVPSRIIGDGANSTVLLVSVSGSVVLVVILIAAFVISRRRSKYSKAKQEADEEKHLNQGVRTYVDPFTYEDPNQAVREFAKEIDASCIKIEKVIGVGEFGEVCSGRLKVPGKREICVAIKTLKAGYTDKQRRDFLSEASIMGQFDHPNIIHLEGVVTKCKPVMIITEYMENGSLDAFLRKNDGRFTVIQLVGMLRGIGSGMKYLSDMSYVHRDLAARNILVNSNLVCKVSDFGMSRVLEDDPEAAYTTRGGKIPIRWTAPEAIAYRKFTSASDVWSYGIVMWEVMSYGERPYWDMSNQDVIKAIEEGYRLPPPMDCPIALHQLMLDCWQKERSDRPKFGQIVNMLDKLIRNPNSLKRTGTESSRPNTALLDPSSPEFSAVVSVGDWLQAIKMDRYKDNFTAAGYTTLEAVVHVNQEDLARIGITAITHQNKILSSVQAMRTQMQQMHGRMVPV"}
{"SMILES": "Nc1ncnc2n[nH]c(Nc3ccc(F)cc3)c12", "remaining activity": "90.1%"}
{"SMILES": "CCOC(=O)c1c(C)[nH]c(/C=C2\\C(=O)Nc3ccccc32)c1C", "remaining activity": "80.3%"}
{"SMILES": "CC(C)[C@H](CO)Nc1nc(Nc2cc(N)cc(Cl)c2)c2ncn(C(C)C)c2n1", "remaining activity": "61.4%"}
{"SMILES": "C#Cc1cccc(Nc2ncnc3cc(OCCOC)c(OCCOC)cc23)c1", "remaining activity": "98.4%"}
{"SMILES": "COc1cc2ncnc(Nc3ccc(F)c(Cl)c3)c2cc1OCCCN1CCOCC1", "remaining activity": "90.2%"}
{"SMILES": "O=C1NC(=O)C(c2cn(CCCO)c3ncccc23)=C1c1cnccn1", "remaining activity": "99.5%"}
{"SMILES": "COc1cc2ncnc(Nc3ccc(Oc4ccccc4)cc3)c2cc1OC", "remaining activity": "106%"}
{"SMILES": "Cc1ccc(NC(=O)c2ccc(CN3CCN(C)CC3)cc2)cc1Nc1nc(-c2cccnc2)cs1", "remaining activity": "105%"}
{"SMILES": "OCC(O)CCON=C1C(c2c(O)[nH]c3ccccc23)=Nc2ccccc21 (centres unmarked)", "remaining activity": "77.9%"}
{"SMILES": "O=C(Nc1cccc(Nc2cc(Nc3cccc(C(F)(F)F)c3)ncn2)c1)C1CC1", "remaining activity": "96.5%"}
{"SMILES": "CO[C@H]1C[C@@H]2CC[C@@H](C)[C@@](O)(O2)C(=O)C(=O)N2CCCC[C@H]2C(=O)O[C@H]([C@H](C)C[C@@H]2CC[C@@H](O)[C@H](OC)C2)CC(=O)[C@H](C)/C=C(\\C)[C@@H](O)[C@@H](OC)C(=O)[C@H](C)C[C@H](C)/C=C/C=C/C=C/1C", "remaining activity": "115%"}
{"data": "Study 3", "Structure (SMILES)": "N#CN1CC[C@H](C(=O)Nc2nc3c(s2)CN(C(=O)CN=[N+]=[N-])CC3)C1", "tested at": "10 µM"}
{"target": "HTR1B (Homo sapiens, UniProt P28222)", "assay": "binding, radioligand binding", "inhibition": "1.57%"}
{"target": "ADRB1 (Homo sapiens, UniProt P08588)", "assay": "ligand displacement", "inhibition": "-7.19%"}
{"target": "ADRA1A (Homo sapiens, UniProt P35348)", "assay": "ligand displacement", "inhibition": "11.2%"}
{"data": "Study 4", "target": "PABPC1L2, full length, GST fusion (mouse, UniProt A0ABA7IW68)", "method": "RNAcompete", "molecule type": "RNA", "medium": "in vitro", "tested at": "20 nM", "setting": "7-mer, probes averaged, single round", "baseline": "mean of 7-mers", "reading": "higher = stronger binding", "Residues (chain)": "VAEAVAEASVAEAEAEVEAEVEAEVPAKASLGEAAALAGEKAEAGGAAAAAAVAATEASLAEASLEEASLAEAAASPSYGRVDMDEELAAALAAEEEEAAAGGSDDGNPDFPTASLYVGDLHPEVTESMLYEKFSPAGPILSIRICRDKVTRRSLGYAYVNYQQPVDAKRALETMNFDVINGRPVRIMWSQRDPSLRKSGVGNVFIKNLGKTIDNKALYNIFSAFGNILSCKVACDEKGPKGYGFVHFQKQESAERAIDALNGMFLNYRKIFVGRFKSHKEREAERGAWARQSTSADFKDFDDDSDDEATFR"}
{"Sequence": "CAAAAGG", "7-mer Z-score": 0.831}
{"Sequence": "GCGGUGU", "7-mer Z-score": 0.0787}
{"Sequence": "CACUUAU", "7-mer Z-score": -0.188}
{"Sequence": "CAUCGGC", "7-mer Z-score": -0.22}
{"Sequence": "AUACCCA", "7-mer Z-score": -0.302}
{"Sequence": "AGGCCGA", "7-mer Z-score": 0.14}
{"Sequence": "AUAUUGU", "7-mer Z-score": -0.128}
{"Sequence": "UAUCUAG", "7-mer Z-score": -0.233}
{"data": "Further values, each from its own experiment"}
{"SMILES": "COc1ccc(-c2c(Nc3ccccn3)[nH]c3c(C4=CCCCC4)c(-c4ccccc4)nn3c2=O)cc1", "system": "human cancer patients, plasma", "conditions": "oral, 150 mg QD, median, cycle 1 day 15", "how to read": "baseline: multiple over single dose", "quantity": "Cmax accumulation ratio", "value": 4.48}
{"note": "A few entries again (study 1):"}
{"Compound": "CN(C)CCCNCc1cccc(Oc2nnnn2-c2ccccc2)c1", "remaining compound": "30%"}
{"Compound": "CC(=O)CC(CC(C)C)n1nnc(-c2ccccc2)n1 (centres unmarked)", "remaining compound": "0.0501%"}
{"Compound": "CCn1cc(N(CC(C)C)C(=O)c2nncc3ccccc23)cn1", "remaining compound": "65.8%"}
